Assay results from different studies.
Numbers after ± are the reported error.
Rhomboid protease AarA: Rhomboid protease AarA (Providencia stuartii, UniProt P46116)
UniProt P46116, sequence (whole entry, looked up): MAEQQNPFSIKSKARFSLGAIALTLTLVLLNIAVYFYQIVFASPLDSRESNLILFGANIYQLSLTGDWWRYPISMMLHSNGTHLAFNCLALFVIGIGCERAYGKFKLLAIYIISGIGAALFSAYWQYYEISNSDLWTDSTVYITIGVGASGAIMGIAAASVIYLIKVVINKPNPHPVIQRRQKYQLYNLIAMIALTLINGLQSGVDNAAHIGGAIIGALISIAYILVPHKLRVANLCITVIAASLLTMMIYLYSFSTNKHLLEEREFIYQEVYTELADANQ
KDM1A: Lysine-specific histone demethylase 1A (KDM1A, Homo sapiens, UniProt O60341)
UniProt O75417, sequence (whole entry, looked up): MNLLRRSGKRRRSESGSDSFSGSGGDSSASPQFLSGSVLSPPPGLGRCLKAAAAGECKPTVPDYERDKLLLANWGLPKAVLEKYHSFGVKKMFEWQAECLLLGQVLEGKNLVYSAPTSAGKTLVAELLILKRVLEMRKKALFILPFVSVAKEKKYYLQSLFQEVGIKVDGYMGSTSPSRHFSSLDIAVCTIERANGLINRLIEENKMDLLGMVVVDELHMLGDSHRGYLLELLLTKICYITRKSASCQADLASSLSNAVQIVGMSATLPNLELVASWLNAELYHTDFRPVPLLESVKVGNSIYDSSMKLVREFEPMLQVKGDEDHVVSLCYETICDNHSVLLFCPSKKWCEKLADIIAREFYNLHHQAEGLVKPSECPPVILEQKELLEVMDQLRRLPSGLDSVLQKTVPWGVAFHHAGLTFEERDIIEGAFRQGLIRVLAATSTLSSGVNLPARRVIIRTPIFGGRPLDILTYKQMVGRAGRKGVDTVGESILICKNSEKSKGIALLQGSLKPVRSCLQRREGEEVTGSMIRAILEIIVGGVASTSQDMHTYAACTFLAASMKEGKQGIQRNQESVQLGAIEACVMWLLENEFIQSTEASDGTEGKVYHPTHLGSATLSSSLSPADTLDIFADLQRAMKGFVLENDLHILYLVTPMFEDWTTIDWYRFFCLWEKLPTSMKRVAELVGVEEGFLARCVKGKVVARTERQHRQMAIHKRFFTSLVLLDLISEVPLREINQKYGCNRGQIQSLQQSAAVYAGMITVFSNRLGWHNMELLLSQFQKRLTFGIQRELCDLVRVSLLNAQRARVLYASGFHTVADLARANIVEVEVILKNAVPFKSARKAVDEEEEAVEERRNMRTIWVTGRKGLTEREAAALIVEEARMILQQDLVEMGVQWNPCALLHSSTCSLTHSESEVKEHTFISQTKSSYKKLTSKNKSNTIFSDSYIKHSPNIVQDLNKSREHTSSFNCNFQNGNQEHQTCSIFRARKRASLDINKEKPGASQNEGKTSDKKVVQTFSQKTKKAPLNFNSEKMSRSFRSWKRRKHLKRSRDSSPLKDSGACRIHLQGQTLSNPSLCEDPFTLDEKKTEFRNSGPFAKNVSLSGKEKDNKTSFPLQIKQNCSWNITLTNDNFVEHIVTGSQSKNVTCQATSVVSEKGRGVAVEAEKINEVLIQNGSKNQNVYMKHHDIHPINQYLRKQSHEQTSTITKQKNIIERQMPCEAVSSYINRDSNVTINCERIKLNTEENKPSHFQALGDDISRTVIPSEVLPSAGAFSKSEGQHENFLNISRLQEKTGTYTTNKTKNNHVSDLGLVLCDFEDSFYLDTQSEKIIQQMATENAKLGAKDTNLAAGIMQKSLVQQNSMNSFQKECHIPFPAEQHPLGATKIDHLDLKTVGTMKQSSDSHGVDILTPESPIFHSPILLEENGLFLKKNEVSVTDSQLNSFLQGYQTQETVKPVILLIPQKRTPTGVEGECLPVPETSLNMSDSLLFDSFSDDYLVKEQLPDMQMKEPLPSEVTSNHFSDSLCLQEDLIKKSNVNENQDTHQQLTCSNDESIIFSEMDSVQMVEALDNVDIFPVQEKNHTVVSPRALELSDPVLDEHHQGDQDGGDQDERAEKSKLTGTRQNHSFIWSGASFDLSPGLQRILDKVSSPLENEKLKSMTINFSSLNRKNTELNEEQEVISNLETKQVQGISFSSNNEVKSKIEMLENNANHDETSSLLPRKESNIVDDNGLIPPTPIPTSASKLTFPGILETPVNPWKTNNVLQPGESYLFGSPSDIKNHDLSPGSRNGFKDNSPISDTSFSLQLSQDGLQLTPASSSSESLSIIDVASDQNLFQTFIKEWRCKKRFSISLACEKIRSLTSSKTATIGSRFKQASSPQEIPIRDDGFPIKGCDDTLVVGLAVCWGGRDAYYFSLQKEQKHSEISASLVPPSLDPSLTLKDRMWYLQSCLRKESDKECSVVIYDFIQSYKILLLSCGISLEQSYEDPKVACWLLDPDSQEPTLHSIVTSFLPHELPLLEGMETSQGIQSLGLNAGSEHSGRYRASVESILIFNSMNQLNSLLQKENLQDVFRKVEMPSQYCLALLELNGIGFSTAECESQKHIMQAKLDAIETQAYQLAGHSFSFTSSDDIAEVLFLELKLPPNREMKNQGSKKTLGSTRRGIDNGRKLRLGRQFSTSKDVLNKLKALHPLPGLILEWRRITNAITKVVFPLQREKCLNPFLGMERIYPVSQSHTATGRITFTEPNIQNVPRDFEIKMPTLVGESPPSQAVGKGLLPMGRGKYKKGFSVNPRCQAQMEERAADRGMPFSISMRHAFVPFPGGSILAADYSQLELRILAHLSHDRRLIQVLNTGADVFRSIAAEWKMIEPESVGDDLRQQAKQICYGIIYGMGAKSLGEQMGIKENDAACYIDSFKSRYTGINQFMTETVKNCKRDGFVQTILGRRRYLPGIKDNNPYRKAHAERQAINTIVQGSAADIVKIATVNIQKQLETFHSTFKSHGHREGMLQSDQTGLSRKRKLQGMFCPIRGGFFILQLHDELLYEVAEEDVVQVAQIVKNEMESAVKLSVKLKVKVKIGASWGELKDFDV
UniProt P03952, sequence (whole entry, looked up): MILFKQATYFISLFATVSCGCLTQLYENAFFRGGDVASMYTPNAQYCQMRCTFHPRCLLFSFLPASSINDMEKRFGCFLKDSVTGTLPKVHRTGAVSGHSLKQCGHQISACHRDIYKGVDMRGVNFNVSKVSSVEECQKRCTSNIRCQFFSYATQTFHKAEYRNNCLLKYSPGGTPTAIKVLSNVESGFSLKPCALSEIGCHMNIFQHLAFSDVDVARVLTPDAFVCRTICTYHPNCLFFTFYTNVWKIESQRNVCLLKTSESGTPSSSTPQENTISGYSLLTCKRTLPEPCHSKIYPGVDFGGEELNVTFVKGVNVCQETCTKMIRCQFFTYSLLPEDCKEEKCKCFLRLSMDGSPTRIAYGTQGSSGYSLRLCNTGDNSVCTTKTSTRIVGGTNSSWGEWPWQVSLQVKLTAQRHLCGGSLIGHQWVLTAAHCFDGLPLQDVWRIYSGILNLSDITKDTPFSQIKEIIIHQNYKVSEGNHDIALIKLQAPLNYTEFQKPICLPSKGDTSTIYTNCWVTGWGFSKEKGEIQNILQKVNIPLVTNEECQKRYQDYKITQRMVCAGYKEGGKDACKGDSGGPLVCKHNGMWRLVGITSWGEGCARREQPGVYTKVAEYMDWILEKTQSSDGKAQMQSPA
UniProt P12295, sequence (whole entry, looked up): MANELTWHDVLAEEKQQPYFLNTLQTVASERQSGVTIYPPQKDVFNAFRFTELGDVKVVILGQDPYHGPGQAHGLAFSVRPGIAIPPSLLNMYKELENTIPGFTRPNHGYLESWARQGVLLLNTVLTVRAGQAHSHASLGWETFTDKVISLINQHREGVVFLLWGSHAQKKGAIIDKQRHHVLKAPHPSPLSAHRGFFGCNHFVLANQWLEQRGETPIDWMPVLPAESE
UniProt Q9HB29, sequence (whole entry, looked up): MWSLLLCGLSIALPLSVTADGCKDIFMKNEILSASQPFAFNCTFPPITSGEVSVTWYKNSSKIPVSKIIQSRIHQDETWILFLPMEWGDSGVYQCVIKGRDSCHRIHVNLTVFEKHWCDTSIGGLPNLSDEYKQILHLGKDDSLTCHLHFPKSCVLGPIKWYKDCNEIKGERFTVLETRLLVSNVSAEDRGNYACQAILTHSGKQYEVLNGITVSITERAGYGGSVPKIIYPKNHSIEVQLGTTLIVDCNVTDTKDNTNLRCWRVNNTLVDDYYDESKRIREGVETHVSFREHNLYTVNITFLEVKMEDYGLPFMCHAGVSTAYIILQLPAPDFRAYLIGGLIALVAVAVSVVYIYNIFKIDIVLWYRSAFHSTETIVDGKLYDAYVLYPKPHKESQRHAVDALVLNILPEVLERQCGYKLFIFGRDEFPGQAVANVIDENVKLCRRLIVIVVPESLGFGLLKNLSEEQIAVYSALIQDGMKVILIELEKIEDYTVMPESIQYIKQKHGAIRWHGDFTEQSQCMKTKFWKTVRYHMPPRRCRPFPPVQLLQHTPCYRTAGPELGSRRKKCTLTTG
UniProt Q16539, sequence (whole entry, looked up): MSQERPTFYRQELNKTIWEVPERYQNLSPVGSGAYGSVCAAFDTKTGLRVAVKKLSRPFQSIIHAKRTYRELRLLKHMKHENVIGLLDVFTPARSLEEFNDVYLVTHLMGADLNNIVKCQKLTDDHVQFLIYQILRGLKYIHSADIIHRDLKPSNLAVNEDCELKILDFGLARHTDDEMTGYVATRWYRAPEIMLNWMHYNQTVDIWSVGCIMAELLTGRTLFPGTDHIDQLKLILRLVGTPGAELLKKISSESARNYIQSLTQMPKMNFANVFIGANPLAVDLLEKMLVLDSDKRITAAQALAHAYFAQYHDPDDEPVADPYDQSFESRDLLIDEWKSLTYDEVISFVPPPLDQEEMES

For `Cc1nnc(Nc2ccc(O)cc2)[nH]c1=O`, the remaining activity was 108 ± 4% (ung (Escherichia coli, UniProt P12295); enzyme activity, inhibitor; concentration not given, counter-screen).
For `O=C1CCN1C(=O)NCc1ccccc1`, the remaining activity was 96% (Rhomboid protease AarA; substrate cleavage, gel-based; 100 µM; relative to: DMSO).
With `CN(C)C(=O)c1cccc([C@@H]2C[C@H]2NC2CCC2)c1` the remaining activity was 93.7% (KDM1A; demethylase activity, inhibitor; 0.02286 µM, added: H3K4me2 peptide).
For `CC(C)[C@@H]1NC(=O)[C@H](Cc2ccccc2)NC(=O)CSC[C@@H](C(N)=O)NC(=O)[C@H](CCC(=O)O)NC(=O)[C@H](CO)NC(=O)[C@H](Cc2c[nH]c3cccc(Cl)c23)NC(=O)[C@H](C2CCCCC2)NC(=O)[C@H](C(C)C)NC(=O)[C@H](Cc2ccc(O)cc2)NC(=O)[C@H](CC(=O)O)NC(=O)[C@H](Cc2c[nH]c3ccccc23)NC(=O)[C@H](Cc2ccc(N)nc2)NC(=O)[C@H](Cc2c[nH]c3ccc(Cl)cc23)NC(=O)[C@H](CCC(=O)O)NC1=O`, the remaining activity was 99.4% (Interleukin-1 receptor-like 2 (IL1RL2, Homo sapiens, UniProt Q9HB29); reporter gene (SEAP), inhibitor, HEK-Blue IL-36R reporter; HEK-Blue IL-36R cells; 0.015 µM, 6 h, added: IL-36γ 10 ng/mL).
The remaining activity of `COC(=O)[C@@]1(C)C=C(C(=O)Nc2cccc(C(=O)Nc3ccc(Nc4nccc(-c5cccnc5)n4)c(C)c3)c2)C(=O)CC1` is reported as 1.14 (Mitogen-activated protein kinase 14 (MAPK14, Homo sapiens, UniProt Q16539); kinase activity, inhibitor; 0.02032 µM, unit not given; relative to: no inhibitor).
`COc1ccccc1-c1ccncc1C(=O)Nc1ccc(OCc2ccc(Cl)cc2)nn1` gave a remaining activity of 100% (DNA polymerase theta, helicase domain (POLQ, Homo sapiens, UniProt O75417); ATPase activity, ADP-Glo; 0.015 µM; relative to: 0 µM cpd).
With `O=C(Nc1cccc([C@@H]2C[C@H]2NC2CCC2)c1)c1ccccc1` the remaining activity was 87.7% (KDM1A; demethylase activity, inhibitor; 0.6173 µM, added: H3K4me2 peptide).
`O=C=[N][Ru-4]123([n]4c5ccc(O)cc5c5c6c(c7cc(F)c[n+]1c7c54)C(=O)NC6=O)[S+]1CC[S+]2CC[S+]3CC1` (stereo not shown) gave a remaining activity of 103% (Tyrosine-protein kinase ABL1 (Abl1, Mus musculus, UniProt P00520); enzyme activity; 100 nM, mouse enzyme, added: 10 µM ATP; relative to: untreated).
For `Cc1cccc(-c2ccc3nc(NC(=O)C4CCCCC4)nn3c2)c1`, the remaining activity was 99% (AMPK; enzyme activity; 10 µM).
For `COC(=O)c1cccc([C@@H]2C[C@H]2NC2CCC2)c1`, the remaining activity was 93% (KDM1A; demethylase activity, inhibitor; 0.2058 µM, added: H3K4me2 peptide).
`C[C@](C(=O)NC1CCOCC1)(c1cncnc1)N(C(=O)[C@H](F)Cl)c1ccc(OC(F)(F)Cl)cc1` has a remaining activity of 103% (Plasma kallikrein (KLKB1, Homo sapiens, UniProt P03952); enzyme activity, inhibitor; 10 µM).
`Cc1nnc(NC(=O)c2ccc([C@@H]3C[C@H]3NC3CCC3)cc2)s1` (racemic) has a remaining activity of 81.5% (KDM1A; demethylase activity, inhibitor; 0.06859 µM, added: H3K4me2 peptide).
`O=C1CC(c2ccccc2)N1S(=O)(=O)c1cccc(Br)c1` (stereo not shown) has a remaining activity of 66% (Rhomboid protease AarA; enzyme activity, inhibitor; 100 µM).

Some of these lines once more:
For `Cc1nnc(Nc2ccc(O)cc2)[nH]c1=O`, the remaining activity was 108 ± 4% (ung (Escherichia coli, UniProt P12295); enzyme activity, inhibitor; concentration not given, counter-screen).
